Measurements pooled from the literature.
Each numbered part is a random draw from the data of one study; scales do not carry over between parts.

Set 1
Target: Replicase polyprotein 1ab, polymerase (rep, Severe acute respiratory syndrome coronavirus 2, UniProt P0DTD1)
Effect on: enzyme activity
Mode: inhibitor
Tested at: 20 µM
SMILES	inhibition [%]
Cc1nc2ccccc2c(-c2ccc3c4c(ccnc24)CCO3)c1[C@H](OC(C)(C)C)C(=O)O	-0.45
CC(C)(N)c1ncc(-c2ccc(OC(F)(F)F)cc2)[nH]1	16.1
CCCCc1nc2cc(/C=C/C(=O)NO)ccc2n1CCN(CC)CC	1.48
Cc1cccc(Oc2cnc(=O)[nH]c2)c1	2.53
Oc1ccc(C(O)CNCCCCCCNCC(O)c2ccc(O)c(O)c2)cc1O (centres unmarked)	-0.42
Nc1ncnc2c1ncn2[C@H]1CC[C@@H](CO)O1	-0.27
COc1ccncc1C(=O)NC(=O)Nc1ccc(-c2ccccc2)c(C(F)(F)F)c1	0.42
N#Cc1ccnc(N2C(=O)CC[C@H]2C(=O)N(c2cncc(F)c2)[C@H](C(=O)NC2CC(F)(F)C2)c2ccccc2Cl)c1	-6.16
CC(C)=CCC/C(C)=C/CNCCNC1C2CC3CC(C2)CC1C3 (centres unmarked)	-2.68
C[n+]1ccc(C(=O)NCc2ccccc2)cc1	3.61
CN(C)CCCSc1ccccc1NC(=O)/C=C/c1ccccc1	2.79
Cc1cc([C@@H](C)Nc2ccccc2C(=O)O)c2nc(N3CCOCC3)cc(=O)n2c1	3.09
COc1ccccc1Oc1c(NS(=O)(=O)c2ccc(C)cn2)nc(-c2ccncc2)nc1OC	0.05
CCOCCOc1ccccc1C(N)=O	-5.23
CCc1cc2c(cc1CC)CC(NC[C@H](O)c1ccc(O)c3[nH]c(=O)ccc13)C2	-3.77
C/N=C(/NC#N)NCCSCc1csc(NC(=N)N)n1	2.47
O=C(O)c1cc2occc2[nH]1	2.49
Cc1ccc(-c2ccc(C)cn2)nc1	-4.83
CC(C)[C@@H]1CC[C@@H](C)C[C@H]1O	1.3
O=C(O)[C@H]1O[C@H](O)[C@H](O)[C@@H](O)[C@@H]1O	1.97
CN(C)CCOC1=Cc2ccccc2Sc2ccc(Cl)cc21	-1.19
c1ccc2c(c1)CCCc1cc(NCCN3CCOCC3)nnc1-2	-0.61
CO[C@H]1CC[C@@H](C(=O)c2ccc3nc4c(cc3c2)CCCO4)CC1	3.15
CC(=O)[C@@]1(O)CC[C@H]2[C@@H]3CCC4=CC(=O)CC[C@]4(C)[C@H]3CC[C@@]21C	0.14
CCCn1c(=O)c2[nH]cnc2n(-c2ccc(Cl)cc2)c1=O	1.99

Set 2
Target: RNA binding protein fox-1 homolog 2, RRM domain, GST-SBP tag (RBFOX2, Homo sapiens, UniProt O43251-10, residues 100-194)
Technique: RNA Bind-n-Seq
Molecule type: RNA
Matrix: in vitro
Tested at: 365 nM
Notes: natural RNA segment, single round, ends assumed
Relative to: no-protein control
Direction: higher = stronger binding
Constant ends, left off below: GGGAGUUCUACAGUCCGACGAUC … UGGAAUUCUCGGGUGCCAA
Target sequence (chain): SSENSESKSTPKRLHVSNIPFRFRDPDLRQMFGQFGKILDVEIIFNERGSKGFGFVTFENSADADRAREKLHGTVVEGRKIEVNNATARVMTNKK
Strand	RBNS enrichment (R)
AAGCUGAAGGUGCUUUUUCAUCAGAACCUUAACAUGGCUGUUGAUGGUACCCUGGCUGCAGCCCAGCGGGGGCUGGAGAGGCAGGGGAGGGCAGUGGUCCUUCCAAAUAG	0.273
CAGAUAGCCUUUUAUCUGUGGAUGACUGAUGUUACUAUCUUUAUAUUUGACUUUGUAUGUCAGUUCCCUGGUUUUUUUGAUAUUGCAUCAUAGGACCUCUGGCAUUUUAG	0.363
CAACGAUUUGGUCAAGGAGGUUAUGAUUCUUCAUAGUCACUCUCCUCAUGAAUCCUUCCCAUUUAUUCCAUGGUAGGACUUGCUUAAGAUCCCUUGUUUCUUUCUCUUUU	0.499
UCUGUAUCAGUGGAUUUCCCAUCCCCUGUGGGAAAUUAGUAGGCUCAUUUACUGUUUUAGGUCUAGCCUAUGUGGAUUUUUUCCUAACAUACCUAAGCAAACCCAGUGUC	0.312
GUAUGAUCACGUAGACCCACCCAACACACUCCUGCACACUGGCCCCGGCCCACGGCACAGCAAUCCCCUGCGCGUGGAUUUCACCUCACCCUUUGUACCAGAUGUUGAGU	0.657
CUAUUCUGCAAAUAGUGUAUUUCCUGGAUUACACAUAGUAUGGUUUCCUGAAGUAUUCUGAUAAAUGUGUUUUUUAAAACCUCAAUAUACUUUUUAGAAAAGGAGCAUCU	0.294
GUUUGUUGGGGAGAAGAAGCACUUUUAAGGAAAAUGCUUCUUAUUUUUCCAAGGCAUUCAGAAGCAGAGAGGGAAAAGGGGCUGUGUGACCUAACAGGACAGAACUUUCU	0.56
UCCCCACCCCACACAUACCACUGCUUUGUCCAGGUGUUUGAUAGAAGAGCAGGGCAGGAAGACAGUUCAGGAGAUGGGUGUCAAGUUUUCUCUUGGUUGAUUUCAUUCCC	0.58

Set 3
Cell line: HEK-293T/ACE2
Tested at: concentration not given
Time: 16 (unit not given)
Relative to: vehicle
SMILES	viability [%]
CCN[C@H]1CN(CCCOC)S(=O)(=O)c2sc(S(N)(=O)=O)cc21	107
C=CC1=C(C(=O)O)N2C(=O)[C@@H](NC(=O)/C(=N\O)c3csc(N)n3)[C@H]2SC1	100
C[C@]12CCC(=O)C=C1CC[C@@H]1[C@@H]2[C@@H](O)C[C@@]2(C)[C@H]1CC[C@]2(O)C(=O)CO	104
CC1(C)NC(=O)N(c2ccc([N+](=O)[O-])c(C(F)(F)F)c2)C1=O	98.6
COC[C@@H](NC(C)=O)C(=O)NCc1ccccc1	105
C[C@H]1O[C@@H](O[C@H]2[C@@H](O)C[C@H](O[C@H]3[C@@H](O)C[C@H](O[C@H]4CC[C@@]5(C)[C@H](CC[C@@H]6[C@@H]5CC[C@]5(C)[C@@H](C7=CC(=O)OC7)CC[C@]65O)C4)O[C@@H]3C)O[C@@H]2C)C[C@H](O)[C@@H]1O	79.1

Set 4
Target: Fragile X messenger ribonucleoprotein 1, C-terminal low-complexity region (Fmr1, Mus musculus, UniProt P35922)
Technique: RNA Bind-n-Seq
Molecule type: RNA
Matrix: in vitro
Tested at: 200 nM
Notes: whole 134-nt RNA, ends assumed
Added: 150 mM KCl
Relative to: input library
Direction: higher = stronger binding
Constant ends, left off below: GGGAGUUCUACAGUCCGACGAUC … UGGAAUUCUCGGGUGUCAAGG
Strand	log2 enrichment
AUGUUCUUGAAUACUUAGCAAACAUACCAGCAUCCCAAAGUCACCAAGAUAAACCCUCCUACUCCAACAUCACAUGAUCUUCUAAUUCUA	0.132
AAGUCCUGUGCUACACAUCGUAUGUACCGAAUCGGGUUUUUUUGGGAAAGGGUGGGAAAGUAUUAUGUUACGCCGUUCGGAUCUGCACUU	0.833
UCAAGUCCUGUGCUACACAUCGUAUGUACCGAAUCGGGAGGGUUUGGGUUUGGGAAAGUAUUAUGUUACGCCGUUCGGAUCUGCACUUCC	1.38
CCUGUGCUACACAUCGUAUGUACCGAAUCGGCCCCCCCGGGCCCCCCCGGCCCCCCCGGGAAAGUAUUAUGUUACGCCGUUCGGAUCUGC	0.114
UCAGAAGGUCUUUUAAGUCUGACCACCCAGCUUGUCAAGGAAAAACUCUCCACCUGUGAAGCAGAGGACAUCGCCACCUAUGAGCAGAAU	0.736
CUGUGCUACACAUCGUAUGUACCGAAUCGGGAAAAAAAGGGGAAAAAAAGGGGAAAAAAAGGAAAGUAUUAUGUUACGCCGUUCGGAUCU	-0.208
AGUCCUGUGCUACACAUCGUAUGUACCGAAUCGGGCCCCCGGGGCCCCCGGCCCCCGGAAAGUAUUAUGUUACGCCGUUCGGAUCUGCAC	-0.152
GUCCUGUGCUACACAUCGUAUGUACCGAAUCGGGGAAAAAGGGAAAAAGGAAAAAGGGAAAGUAUUAUGUUACGCCGUUCGGAUCUGCAC	-0.247

Set 5
Target: Replicase polyprotein 1ab, main protease (rep, Severe acute respiratory syndrome coronavirus 2, UniProt P0DTD1)
Effect on: enzyme activity
Mode: inhibitor
Tested at: 20 µM
Notes: primary screen
Compound	inhibition [%]
CCCCC/C=C/C/C=C/C/C=C/C/C=C/CCCC(=O)O	37.9
CC(C)/N=c1\cc2n(-c3ccc(Cl)cc3)c3ccccc3nc-2cc1Nc1ccc(Cl)cc1	25
O=C1OC2(c3ccccc31)c1cc(Br)c(O)c(Br)c1Oc1c2cc(Br)c(O)c1Br	48

Excerpt of the above (set 1):
SMILES	inhibition [%]
O=C(O)[C@H]1O[C@H](O)[C@H](O)[C@@H](O)[C@@H]1O	1.97
Nc1ncnc2c1ncn2[C@H]1CC[C@@H](CO)O1	-0.27
CN(C)CCOC1=Cc2ccccc2Sc2ccc(Cl)cc21	-1.19
